# Experimental data pooled from the literature.
# Each line is one published result; not all experiments were run side by side.
# Organism: Mycolicibacterium smegmatis
SMILES,test,system,conditions,MIC
CCc1ccn2c(C(=O)NCc3ccc(C)cc3)c(C)nc2c1,"microbial growth, broth dilution",,,> 50 µM
Cc1nc2cc(OC(F)(F)F)ccn2c1C(=O)NCc1ccc2oc(-c3ccc(OC(F)(F)F)cc3)nc2c1,,,72 h,> 50 µM
O=C(NCc1ccccc1)C(CCc1ccccc1)N(CCc1c[nH]cn1)C(=O)c1ccccc1 (racemic),,mc2155,,> 128 µM
CN[C@@H]1[C@H](O)[C@H](NC)[C@H]2O[C@]3(O)[C@H](O[C@@H]2[C@H]1O)O[C@H](C)C[C@H]3NC(=O)Cc1cc(Cl)ccn1,,,,12.5 mg/L
Cc1ccc2nc(C)c(CC(=O)NCc3ccc(N(C)C)cc3)n2c1,"microbial growth, broth dilution",,,> 50 µM
CN[C@@H]1[C@H](O)[C@H](NC)[C@H]2O[C@]3(O)[C@H](O[C@@H]2[C@H]1O)O[C@H](C)C[C@H]3NC(=O)Cc1ccc(Cl)cn1,,,,12.5 to 25 mg/L
Cc1ccc(CNC(=O)Cc2c(C)nc3ccc(C)cn23)cc1,"microbial growth, broth dilution",,,> 50 µM
CCCO[C@H]1[C@H](O)[C@@H](N)[C@@H](O[C@H]2[C@H](O[C@@H]3O[C@H](CO)[C@@H](O[C@H]4O[C@@H](CN)[C@@H](O)[C@H](O)[C@H]4N)[C@H]3O)[C@@H](O)[C@H](N)C[C@@H]2N)O[C@@H]1CO,"microbial growth, broth dilution",,72 h,8 mg/L
Cc1nc2ccc(Br)cn2c1C(=O)NCc1ccc2oc(-c3ccc(Cl)cc3)nc2c1,,,72 h,> 50 µM
CCO[C@H]1[C@H](O)[C@@H](N)[C@@H](O[C@H]2[C@H](O[C@@H]3O[C@H](CO)[C@@H](O[C@H]4O[C@@H](CN)[C@@H](O)[C@H](O)[C@H]4N)[C@H]3O)[C@@H](O)[C@H](N)C[C@@H]2N)O[C@@H]1CO,"microbial growth, broth dilution",,72 h,4 to 8 mg/L
Cc1nc2ccc(Br)cn2c1C(=O)NCc1ccc2oc(-c3ccc(OC(F)(F)F)cc3)nc2c1,,,72 h,> 50 µM
